{"data": "Measured values pooled from the literature", "target": "Ephrin type-A receptor 3 (EPHA3, Homo sapiens, UniProt P29320)"}
{"SMILES": "NC(=O)[C@@H](O)C[C@H]1CCc2sc3ncnc(O[C@H]4CC[C@H](N5CCOCC5)CC4)c3c21", "test": "enzyme activity, inhibitor", "conditions": "10 µM", "endpoint": "inhibition", "result": "11%"}
{"SMILES": "C=CC(=O)N1CCCC(n2c(=O)c3ncccc3n(Cc3ccc(Oc4ccccc4)cc3)c2=O)C1 (stereo not drawn)", "test": "cell-free assay, competition with immobilised ligand", "conditions": "1 µM", "endpoint": "remaining binding", "result": "100%"}
{"SMILES": "C=CC(=O)N1Cc2nc(-c3cc(-c4cc(Cl)cnc4Cl)c(F)cc3F)n(-c3ccncn3)c2C1", "test": "cell-free assay", "conditions": "1 µM", "endpoint": "inhibition", "result": "-2.5%"}
{"SMILES": "Cc1nc2c(F)cc(-c3nc(Nc4ccc(CNC(=O)CCCCCCC(=O)NO)cc4)ncc3F)cc2n1C(C)C", "test": "enzyme activity, inhibitor", "conditions": "1 µM", "endpoint": "inhibition", "result": "60%"}
{"SMILES": "COCC12C(=O)NC3C4(C(OC)CC1O)C1CC5(O)C(OC)C(O)C(OC(C)=O)(C1C5OC(=O)c1ccccc1)C3(O)C(OC)C24 (stereo not drawn)", "test": "kinase activity, inhibitor, ProQinase kinase profiling", "conditions": "25 µM", "how to read": "baseline: control", "endpoint": "remaining activity", "result": "98%"}
{"SMILES": "CN1CCN(Cc2ccc(-c3ccc(CO[C@H]4CCC[C@@H]4NC(=O)c4cc(-c5cnn(C)c5)cnc4N)cc3)cc2)CC1", "test": "enzyme activity, inhibitor", "conditions": "0.1 µM", "endpoint": "inhibition", "result": "4%"}
{"SMILES": "CCN1CCN(Cc2ccc(C(=O)Nc3ccc(C)c(NCc4cnc5[nH]ccc5c4OC)c3)cc2C(F)(F)F)CC1", "test": "binding, competition with immobilised ligand", "conditions": "1 µM", "endpoint": "remaining binding", "result": "19%"}
{"SMILES": "CNC(=O)C[C@H](Cc1ccc(C#N)cc1)NC(=O)c1cc(-c2ccc(CN[C@H](C)c3ccc(C)cc3)o2)ccc1Cl", "test": "enzyme activity, inhibitor", "conditions": "1 µM", "endpoint": "activity vs control", "result": "107%"}
{"SMILES": "O=C=[N][Ru-4]123([n]4c5ccc(O)cc5c5c6c(c7cc(F)c[n+]1c7c54)C(=O)NC6=O)[S+]1CC[S+]2CC[S+]3CC1 (stereo not drawn)", "test": "enzyme activity", "conditions": "100 nM, human enzyme, together with: 10 µM ATP", "how to read": "baseline: untreated", "endpoint": "remaining activity", "result": "115%"}
{"SMILES": "O=C(Cc1ccc(OCc2ccccc2)cc1)NC1(C(=O)O)CCN(C(=O)c2ccc(-c3cccc(Cl)c3)cc2)CC1", "test": "enzyme activity, inhibitor", "conditions": "10 µM", "endpoint": "activity vs control", "result": "85%"}
{"SMILES": "C=CC(=O)Nc1cccc(-c2cnc3[nH]cc(C(=O)NC(C)(C)C)c3n2)c1", "test": "kinase activity", "conditions": "0.1 µM", "endpoint": "inhibition", "result": "-4%"}
{"SMILES": "COc1cc(Nc2nccc(-c3cnn4nc(OC)ccc34)n2)cc(C(F)(F)F)c1", "test": "binding, competition with immobilised ligand", "conditions": "1 µM", "endpoint": "remaining binding", "result": "100%"}
{"SMILES": "Cc1cccc(O[C@H]2CCC[C@@H](C(C)CNCc3ccncc3)C2)c1 (relative stereo)", "test": "cell-free assay", "conditions": "1 µM", "endpoint": "inhibition", "result": "-3%"}
{"SMILES": "COc1ccc(NC(=O)Nc2ccc3c(c2)C(=O)N(C(C)CO)CC(C)C(CN(C)Cc2ccc4c(c2)OCO4)O3)cc1 (stereo not drawn)", "test": "kinase activity", "conditions": "0.03 µM", "how to read": "baseline: control", "endpoint": "remaining activity", "result": "91%"}
{"SMILES": "Cc1cnc2nc1Nc1cccc(c1)COC/C=C/COCc1cc(ccc1OCCN1CCOCC1)N2", "test": "binding", "conditions": "0.1 µM", "endpoint": "remaining binding", "result": "72%"}
{"note": "Excerpt of the above:"}
{"SMILES": "COCC12C(=O)NC3C4(C(OC)CC1O)C1CC5(O)C(OC)C(O)C(OC(C)=O)(C1C5OC(=O)c1ccccc1)C3(O)C(OC)C24 (stereo not drawn)", "test": "kinase activity, inhibitor, ProQinase kinase profiling", "conditions": "25 µM", "how to read": "baseline: control", "endpoint": "remaining activity", "result": "98%"}
